Measurements pooled from the literature.
Chain of UniProt P37136 (whole entry, looked up): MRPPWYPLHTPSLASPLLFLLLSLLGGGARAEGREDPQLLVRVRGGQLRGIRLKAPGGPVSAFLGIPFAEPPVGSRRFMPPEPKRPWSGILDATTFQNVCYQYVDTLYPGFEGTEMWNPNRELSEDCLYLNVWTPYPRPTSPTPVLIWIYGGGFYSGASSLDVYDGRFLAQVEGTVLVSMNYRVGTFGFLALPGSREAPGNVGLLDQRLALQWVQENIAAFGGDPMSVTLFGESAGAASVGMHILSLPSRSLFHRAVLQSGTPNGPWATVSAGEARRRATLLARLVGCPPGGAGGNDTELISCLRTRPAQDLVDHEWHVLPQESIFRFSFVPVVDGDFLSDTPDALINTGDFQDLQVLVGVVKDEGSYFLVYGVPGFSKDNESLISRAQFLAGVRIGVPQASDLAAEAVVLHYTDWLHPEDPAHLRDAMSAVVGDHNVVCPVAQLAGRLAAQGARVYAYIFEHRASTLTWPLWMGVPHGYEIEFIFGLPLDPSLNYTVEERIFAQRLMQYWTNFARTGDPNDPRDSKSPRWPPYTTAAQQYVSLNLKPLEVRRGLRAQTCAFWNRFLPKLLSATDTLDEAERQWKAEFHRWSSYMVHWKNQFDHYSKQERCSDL

For `phoxim-oxon`, the IC50 was 30 nM (Ache (Rattus norvegicus, UniProt P37136); inhibitor; rat, postnatal day 1, rat serum).
The Tmax of `chicoric acid` is reported as 0.5 h (UPLC; broiler chicken, plasma; oral gavage, 20 mg/kg).
With `maraviroc` the Tmax was 2 h (black CYP3A5 extensive metabolizers, plasma; 300 mg twice daily).
`semaglutide` — result for “participants with adverse events”: 75% (refers to: recovered or resolved; human, safety analysis set; concentration not given, 32 weeks, run-in).
For `vorinostat glucuronide`, the Cmax was 1210 nM (patients, plasma; oral, 100 mg vorinostat three times daily, 3 days, with: idarubicin).
For `deucravacitinib`, the Cmax was 19.6 ng/mL (human; oral, 3 mg, single dose).

Excerpt of the above:
With `maraviroc` the Tmax was 2 h (black CYP3A5 extensive metabolizers, plasma; 300 mg twice daily).
